Measured values of several laboratories.
Each line is one published result; not all experiments were run side by side. ± marks the error that the study gave.
B1: human EEF1A1; sequence looked up; chain GKEKTHINIVVIGHVDSGKSTTTGHLIYKCGGIDKRTIEKFEKEAAEMGKGSFKYAWVLDKLKAERERGITIDISLWKFETSKYYVTIIDAPGHRDFIKNMITGTSQADCAVLIVAAGVGEFEAGISKNGQTREHALLAYTLGVKQLIVGVNKMDSTEPPYSQKRYEEIVKEVSTYIKKIGYNPDTVAFVPISGWNGDNMLEPSANMPWFKGWKVTRKDGNASGTTLLEALDCILPPTRPTDKPLRLPLQDVYKIGGIGTVPVGRVETGVLKPGMVVTFAPVNVTTEVKSVEMHHEALSEALPGDNVGFNVKNVSVKDVRRGNVAGDSKNDPPMEAAGFTAQVIILNHPGQISAGYAPVLDCHTAHIACKFAELKEKIDRRSGKKLEDGPKFLKSGDAAIVDMVPGKPMCVESFSDYPPLGRFAVRDMRQTVAVGVIKAVDKKAAGAGKVTKSAQKAQKAK
B2: SIGLEC9 18-348 (Homo sapiens, UniProt Q9Y336); sequence looked up; chain QTSKLLTMQSSVTVQEGLCVHVPCSFSYPSHGWIYPGPVVHGYWFREGANTDQDAPVATNNPARAVWEETRDRFHLLGDPHTKNCTLSIRDARRSDAGRYFFRMEKGSIKWNYKHHRLSVNVTALTHRPNILIPGTLESGCPQNLTCSVPWACEQGTPPMISWIGTSVSPLDPSTTRSSVLTLIPQPQDHGTSLTCQVTFPGASVTTNKTVHLNVSYPPQNLTMTVFQGDGTVSTVLGNGSSLSLPEGQSLRLVCAVDAVDSNPPARLSLSWRGLTLCPSQPSNPGVLELPWVHLRDAAEFTCRAQNPLGSQQVYLNVSLQSKATSGVTQG
B3: ITGAV/ITGB5 ectodomain, soluble, clasped; chain 1 FNLDVDSPAEYSGPEGSYFGFAVDFFVPSASSRMFLLVGAPKANTTQPGIVEGGQVLKCDWSSTRRCQPIEFDATGNRDYAKDDPLEFKSHQWFGASVRSKQDKILACAPLYHWRTEMKQEREPVGTCFLQDGTKTVEYAPCRSQDIDADGQGFCQGGFSIDFTKADRVLLGGPGSFYWQGQLISDQVAEIVSKYDPNVYSIKYNNQLATRTAQAIFDDSYLGYSVAVGDFNGDGIDDFVSGVPRAARTLGMVYIYDGKNMSSLYNFTGEQMAAYFGFSVAATDINGDDYADVFIGAPLFMDRGSDGKLQEVGQVSVSLQRASGDFQTTKLNGFEVFARFGSAIAPLGDLDQDGFNDIAIAAPYGGEDKKGIVYIFNGRSTGLNAVPSQILEGQWAARSMPPSFGYSMKGATDIDKNGYPDLIVGAFGVDRAILYRARPVITVNAGLEVYPSILNQDNKTCSLPGTALKVSCFNVRFCLKADGKGVLPRKLNFQVELLLDKLKQKGAIRRALFLYSRSPSHSKNMTISRGGLMQCEELIAYLRDESEFRDKLTPITIFMEYRLDYRTAADTTGLQPILNQFTPANISRQAHILLDCGEDNVCKPKLEVSVDSDQKKIYIGDDNPLTLIVKAQNQGEGAYEAELIVSIPLQADFIGVVRNNEALARLSCAFKTENQTRQVVCDLGNPMKAGTQLLAGLRFSVHQQSEMDTSVKFDLQIQSSNLFDKVSPVVSHKVDLAVLAAVEIRGVSSPDHVFLPIPNWEHKENPETEEDVGPVVQHIYELRNNGPSSFSKAMLHLQWPYKYNNNTLLYILHYDIDGPMNCTSDMEINPLRIKISSLQTTEKNDTVAGQGERDHLITKRDLALSEGDIHTLGCGVAQCLKIVCQVGRLDRGKSAILYVKSLLWTETFMNKENQNHSYSLKSSASFNVIEFPYKNLPIEDITNSTLVTTNVTWGIQPAPMPV; chain 2 GLNICTSGSATSCEECLLIHPKCAWCSKEDFGSPRSITSRCDLRANLVKNGCGGEIESPASSFHVLRSLPLSSKGSGSAGWDVIQMTPQEIAVNLRPGDKTTFQLQVRQVEDYPVDLYYLMDLSLSMKDDLDNIRSLGTKLAEEMRKLTSNFRLGFGSFVDKDISPFSYTAPRYQTNPCIGYKLFPNCVPSFGFRHLLPLTDRVDSFNEEVRKQRVSRNRDAPEGGFDAVLQAAVCKEKIGWRKDALHLLVFTTDDVPHIALDGKLGGLVQPHDGQCHLNEANEYTASNQMDYPSLALLGEKLAENNINLIFAVTKNHYMLYKNFTALIPGTTVEILDGDSKNIIQLIINAYNSIRSKVELSVWDQPEDLNLFFTATCQDGVSYPGQRKCEGLKIGDTASFEVSLEARSCPSRHTEHVFALRPVGFRDSLEVGVTYNCTCGCSVGLEPNSARCNGSGTYVCGLCECSPGYLGTRCECQDGENQSVYQNLCREAEGKPLCSGRGDCSCNQCSCFESEFGKIYGPFCECDNFSCARNKGVLCSGHGECHCGECKCHAGYIGDNCNCSTDISTCRGRDGQICSERGHCLCGQCQCTEPGAFGEMCEKCPTCPDACSTKRDCVECLLLHSGKPDNQTCHSLCRDEVITWVDTIVKDDQEAVLCFYKTAKDCVMMFTYVELPSGKSNLTVLREPECGNTPN
Chain of UniProt P38632 (whole entry, looked up): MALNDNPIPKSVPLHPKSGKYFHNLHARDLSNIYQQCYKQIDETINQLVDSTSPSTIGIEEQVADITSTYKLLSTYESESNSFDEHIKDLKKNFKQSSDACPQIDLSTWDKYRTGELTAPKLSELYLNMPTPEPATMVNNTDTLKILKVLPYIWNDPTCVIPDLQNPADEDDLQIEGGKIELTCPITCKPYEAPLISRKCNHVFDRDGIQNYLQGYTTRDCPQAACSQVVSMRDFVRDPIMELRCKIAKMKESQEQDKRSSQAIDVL
Chain of UniProt P40026 (whole entry, looked up): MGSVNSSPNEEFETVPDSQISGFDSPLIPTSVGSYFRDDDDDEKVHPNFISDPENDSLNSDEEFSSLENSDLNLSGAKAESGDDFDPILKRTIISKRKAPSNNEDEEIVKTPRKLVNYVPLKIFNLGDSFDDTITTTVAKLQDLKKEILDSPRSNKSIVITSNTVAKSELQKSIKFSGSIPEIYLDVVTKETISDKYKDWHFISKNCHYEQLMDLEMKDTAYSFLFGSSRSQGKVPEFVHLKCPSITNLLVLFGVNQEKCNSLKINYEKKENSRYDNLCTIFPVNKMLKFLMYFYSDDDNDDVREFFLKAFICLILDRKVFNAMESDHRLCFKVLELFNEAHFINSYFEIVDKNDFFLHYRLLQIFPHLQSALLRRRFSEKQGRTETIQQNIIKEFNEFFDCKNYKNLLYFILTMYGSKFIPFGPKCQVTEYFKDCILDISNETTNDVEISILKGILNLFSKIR
Chain of UniProt Q14956 (whole entry, looked up): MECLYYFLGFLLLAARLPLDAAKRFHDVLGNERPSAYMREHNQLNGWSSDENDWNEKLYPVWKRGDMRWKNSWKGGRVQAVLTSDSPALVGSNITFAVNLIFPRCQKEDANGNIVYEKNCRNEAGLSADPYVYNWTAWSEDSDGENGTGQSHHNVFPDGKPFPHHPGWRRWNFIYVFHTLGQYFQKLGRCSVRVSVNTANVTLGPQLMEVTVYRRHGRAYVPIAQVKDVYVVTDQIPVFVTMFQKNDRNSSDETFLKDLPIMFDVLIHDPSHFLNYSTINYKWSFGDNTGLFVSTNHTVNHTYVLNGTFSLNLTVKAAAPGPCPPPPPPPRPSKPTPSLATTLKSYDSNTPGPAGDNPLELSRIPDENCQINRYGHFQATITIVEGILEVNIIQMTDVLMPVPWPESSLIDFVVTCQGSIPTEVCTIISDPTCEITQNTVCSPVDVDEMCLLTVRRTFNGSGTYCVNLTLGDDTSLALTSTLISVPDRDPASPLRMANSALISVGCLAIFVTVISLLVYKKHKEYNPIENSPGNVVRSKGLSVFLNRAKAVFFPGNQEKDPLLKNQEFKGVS
Chain of UniProt P41587 (whole entry, looked up): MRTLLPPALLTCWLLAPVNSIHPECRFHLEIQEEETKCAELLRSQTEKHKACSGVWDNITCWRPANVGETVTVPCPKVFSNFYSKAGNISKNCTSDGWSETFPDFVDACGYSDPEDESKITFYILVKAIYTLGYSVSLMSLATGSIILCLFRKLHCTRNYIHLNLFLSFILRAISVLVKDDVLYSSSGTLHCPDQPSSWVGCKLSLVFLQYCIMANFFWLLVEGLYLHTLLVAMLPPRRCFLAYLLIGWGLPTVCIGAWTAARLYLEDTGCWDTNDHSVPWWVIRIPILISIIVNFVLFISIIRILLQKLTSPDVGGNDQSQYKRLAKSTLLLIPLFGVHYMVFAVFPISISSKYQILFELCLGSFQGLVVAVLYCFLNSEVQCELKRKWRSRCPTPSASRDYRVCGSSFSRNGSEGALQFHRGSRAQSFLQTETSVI
Chain of UniProt Q9NWS0 (whole entry, looked up): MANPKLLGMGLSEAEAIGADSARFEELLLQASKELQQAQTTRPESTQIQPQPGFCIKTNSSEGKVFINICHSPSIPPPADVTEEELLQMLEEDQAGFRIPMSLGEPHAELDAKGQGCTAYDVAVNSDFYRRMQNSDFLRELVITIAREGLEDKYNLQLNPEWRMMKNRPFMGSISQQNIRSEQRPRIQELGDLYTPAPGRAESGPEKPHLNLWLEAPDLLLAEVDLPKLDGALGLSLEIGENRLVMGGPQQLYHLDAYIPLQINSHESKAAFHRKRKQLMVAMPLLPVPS

| Molecule | tested on | test | test system | setting | scale | quantity | result |
| --- | --- | --- | --- | --- | --- | --- | --- |
| FGB (Homo sapiens, UniProt P02675) | PARVA (Homo sapiens, UniProt Q9NVD7) | cross-linking MS |  | together with: DSSO |  | cross-linked residues | K77 to K131 |
| B1 (human EEF1A1) | PP6C (human) | co-immunoprecipitation, IP-MS | CYB5R4 knockout cells | concentration not given | baseline: CYB5R4 knockout over parental | log2 fold change | -0.25 |
| SQELHKLQTYPRTNTGSGTP (salmon calcitonin 13-32, N-terminal FITC-Ahx/C-terminal amide (Salmo salar); N-terminal FITC-Ahx/C-terminal amide) | RAMP2/CALCR extracellular domain 55-140 (Homo sapiens) | fluorescence polarisation | peptide |  |  | pKD | 5.77 |
| aducanumab (Homo sapiens) | amyloid beta 3-end, N-terminal pyroglutamate at 3 | SiMoA |  |  |  | limit of detection | 56 pM |
| colistin | Enterobacter cloacae | broth microdilution | clinical isolate RKI-No_113/16 |  |  | MIC | ≤ 0.5 µg/mL |
| B2 (SIGLEC9 18-348) | GPNMB extracellular domain 23-498 (Homo sapiens, UniProt Q14956) | BLI | Fc fusion | together with: sialidase | baseline: untreated GPNMB, lower = reduced binding after sialidase | relative binding | 5.42 fold |
| INSR (Homo sapiens, UniProt P06213) | HSP90AA1 (Homo sapiens, UniProt P07900) | co-IP | myocardium, lysate | DCM patients | baseline: controls, higher = more co-precipitated | co-precipitation change | 1.4 fold |
| EGLN1 fragment | HIF1A CODD peptide 556-574, C-terminal amide (Homo sapiens) | BLI |  |  |  | kon | 2000 M⁻¹ s⁻¹ |
| FGG (Homo sapiens, UniProt P02679) | CCDC30 (Homo sapiens, UniProt Q5VVM6) | cross-linking MS |  | together with: DSSO |  | cross-linked residues | K185 to K346 |
| EGF mature | EGFR Fc fusion fragment (Homo sapiens) | ITC |  |  |  | ΔH | 23 ± 0.089 kcal/mol |
| B3 | cyclic RGD peptide, disulfide-cyclized, aminocaproic acid, FITC | fluorescence polarisation |  | together with: CaCl2 1 mM |  | EC50 | 8.5 nM |
| prohibitin-2, human | CYB5R4 knockout human cells | PP6 interaction, 3xFLAG-PP6C IP-MS |  | concentration not given | baseline: CYB5R4 KO over parental | log2 fold change | -0.53 |
| H3C1 N-terminal peptide, K14 propionyl | KAT6A 194-323 (Homo sapiens, UniProt Q92794) | ITC |  | pH 7.5 |  | ΔH | -1.7 kcal/mol |
| MMS21 (Saccharomyces cerevisiae, UniProt P38632) | KRE29 (Saccharomyces cerevisiae, UniProt P40026) | cross-linking MS |  | hits only |  | interaction screen | cross-linked |
| ADCYAP1 PACAP (Homo sapiens) | VIPR2 (Homo sapiens, UniProt P41587) | cAMP accumulation, antagonist | Cos7 | VPAC2, together with: VIP |  | pKB | 83.2 nM |
| FGA (Homo sapiens, UniProt P02671) | MTCL1 (Homo sapiens, UniProt Q9Y4B5) | cross-linking MS |  | together with: DSSO |  | cross-linked residues | K476 to K445 |
| DLDSDDEY (TELO2 488-494 (Homo sapiens); pS491) | PIH1D1 51-180 (Homo sapiens, UniProt Q9NWS0) | ITC | peptide |  |  | molecule per partner | 0.7 |

A few entries again:
| Molecule | tested on | test | test system | setting | scale | quantity | result |
| --- | --- | --- | --- | --- | --- | --- | --- |
| B2 (SIGLEC9 18-348) | GPNMB extracellular domain 23-498 (Homo sapiens, UniProt Q14956) | BLI | Fc fusion | together with: sialidase | baseline: untreated GPNMB, lower = reduced binding after sialidase | relative binding | 5.42 fold |
| SQELHKLQTYPRTNTGSGTP (salmon calcitonin 13-32, N-terminal FITC-Ahx/C-terminal amide (Salmo salar); N-terminal FITC-Ahx/C-terminal amide) | RAMP2/CALCR extracellular domain 55-140 (Homo sapiens) | fluorescence polarisation | peptide |  |  | pKD | 5.77 |
| EGLN1 fragment | HIF1A CODD peptide 556-574, C-terminal amide (Homo sapiens) | BLI |  |  |  | kon | 2000 M⁻¹ s⁻¹ |
